{"data": "Measurements collected from several papers", "SCTR": "Secretin receptor (SCTR, Homo sapiens, UniProt P47872)", "POLB": "DNA polymerase beta (POLB, Homo sapiens, UniProt P06746)", "note": "Protocols differ between the studies behind these lines. Numbers after ± are the reported error."}
{"Substance": "O=C(O)c1ccnc(C(=O)O)c1Br", "target": "Egl nine homolog 1 (EGLN1, Homo sapiens, UniProt Q9GZT9)", "test": "inhibitor, HTRF", "conditions": "400 µM", "measurement": "remaining activity", "result": "100%"}
{"Substance": "OC(c1cccc(C2=CCCNC2)n1)C(F)(F)F (centres unmarked)", "target": "HTR2A (Homo sapiens, UniProt P28223)", "test": "β-arrestin recruitment, agonist", "measurement": "Emax", "result": "75.8%"}
{"Substance": "COc1cc(C(=O)c2[nH]c(N)nc2-c2cccs2)cc(OC)c1OC", "target": "alkaline phosphatase", "test": "inhibitor", "conditions": "concentration not given", "measurement": "enzyme activity", "result": "no inhibition"}
{"Substance": "COc1ccc(-c2cc(C(F)(F)F)nc(NCc3ccccc3)n2)cc1OC", "target": "SCTR", "test": "increase of tracer binding, TR-FRET", "test system": "HEK293 membranes", "conditions": "added: Fluo-Sec 6 nM", "measurement": "Emax", "result": "147 ± 11%"}
{"Substance": "CC[C@H](C)[C@@H]1NC(=O)[C@H](Cc2ccccc2)NC(=O)[C@H](CCC(=O)O)NC(=O)[C@H](CCCNC(=N)N)NC(=O)CNC(=O)[C@@H](NC(=O)[C@H](CC(C)C)NC(=O)[C@H](CCCNC(=N)N)NC(=O)[C@@H](NC(=O)CNC(=O)[C@H](Cc2ccc(O)cc2)NC(=O)[C@@H]2CCCN2C(=O)[C@H](C)NC(=O)[C@H](C)NC(=O)[C@@H](N)CCCNC(=N)N)C(C)C)CSSC[C@@H]2NC(=O)[C@@H](NC(=O)[C@H](CO)NC(=O)[C@H](CO)NC(=O)[C@H](CO)NC(=O)[C@H](CC(C)C)NC(=O)CNC(=O)[C@H](C)NC(=O)[C@H](CC(C)C)NC(=O)[C@@H](NC(=O)[C@@H](N)CC(=O)O)C(C)C)CSSC[C@H](NC(=O)CNC(=O)[C@H](Cc3c[nH]c4ccccc34)NC(=O)[C@H](CCCCN)NC2=O)C(=O)N[C@@H](CO)C(=O)N[C@@H](CCCCN)C(=O)N[C@@H](CO)C(=O)N[C@@H](CCC(=O)O)C(=O)N[C@@H]([C@@H](C)CC)C(=O)N[C@@H](CO)C(=O)N[C@@H](CO)C(=O)N[C@@H](CC(C)C)C(=O)N[C@H](C(=O)O)CSSC[C@@H](C(=O)NCC(=O)NCC(=O)N[C@@H](CO)C(=O)N[C@@H](CCCNC(=N)N)C(=O)N[C@@H](Cc2c[nH]c3ccccc23)C(=O)O)NC(=O)[C@H]([C@@H](C)O)NC(=O)[C@H](Cc2ccccc2)NC(=O)[C@H]([C@@H](C)CC)NC(=O)[C@H](C(C)C)NC(=O)[C@H](C)NC(=O)[C@H](CCCNC(=N)N)NC1=O", "target": "RXFP4 (Homo sapiens, UniProt Q8TDU9, L192A)", "test": "cAMP response, agonist", "conditions": "concentration not given, L192A mutant", "how to read": "baseline: wild type", "measurement": "potency reduction", "result": "58 fold"}
{"Substance": "COc1ccc(-c2cc(C(F)(F)F)nc(S(=O)(=O)CCCC(=O)Nc3c(F)cc(F)cc3Br)n2)cc1OC", "target": "SCTR", "test": "cAMP, agonist", "measurement": "Emax", "result": "27%"}
{"Substance": "CC(C)CCC[C@@H](C)[C@H]1CC[C@H]2[C@@H]3CC=C4C[C@@H](OS(=O)(=O)O)CC[C@]4(C)[C@H]3CC[C@]12C", "target": "Prothrombin (F2, Homo sapiens, UniProt P00734)", "test": "enzyme activity, inhibitor, chromogenic substrate", "conditions": "10 min, pH 7.4, 25 °C, 0.02% Tween 80", "measurement": "Hill slope", "result": "3.3 ± 1.2"}
{"Substance": "Cc1cn(C2CC(O)C(COP(=O)(O)OP(=O)(O)C(F)(Cl)P(=O)(O)O)O2)c(=O)[nH]c1=O (mixture of isomers)", "target": "POLB", "test": "nucleotide incorporation rate, substrate, single-turnover kinetics", "test system": "single-nucleotide gapped DNA", "conditions": "37 °C, wild type, correct incorporation, added: dTTP opposite template A", "measurement": "kpol", "result": "3.8 ± 0.3 s⁻¹"}
{"Substance": "Cc1ncsc1-c1ccc([C@H](C)NC(=O)[C@@H]2C[C@@H](O)CN2C(=O)[C@@H](NCC(=O)N2CCC(c3cc(Nc4cc(C#N)ccn4)nc(N4CCC(F)(F)C4)c3)CC2)C(C)(C)C)cc1", "target": "MAP3K13 (Homo sapiens, UniProt O43283)", "test": "protein degradation, degrader, Western blot", "test system": "CAL-33, dox-induced MAP3K13 overexpression", "conditions": "24 h", "measurement": "lowest degrading concentration", "result": "500 nM"}
{"Substance": "COc1ccc(C(=O)c2c(C(=O)NCCCN(C)C)oc3ccc(Cl)cc3c2=O)cc1OC", "target": "GHSR (Homo sapiens, UniProt Q92847)", "test": "calcium mobilization", "test system": "HEK293 cells", "how to read": "baseline: binding IC50 over calcium EC50", "measurement": "potency ratio", "result": "41 fold"}
{"Substance": "DREIEILTKEINKLELKISD", "target": "Exportin-1 (XPO1, Homo sapiens, UniProt O14980, E571K)", "test": "fluorescence polarization", "test system": "peptide", "how to read": "baseline: E571K mutant over wild type", "measurement": "Kd ratio", "result": 1.1}
{"Substance": "N#Cc1cccc(-c2ccc(=O)n(Cc3cccc(-c4ncc(OCC5CCN(CC(=O)N6CCN(c7ccc8c(c7)C(=O)N(C7CCC(=O)NC7=O)C8=O)CC6)CC5)cn4)c3)n2)c1 (centres unmarked)", "target": "MET (Homo sapiens, UniProt P08581)", "test": "degrader", "test system": "EBC-1", "conditions": "concentration not given", "measurement": "Dmax", "result": "> 99%"}
{"Substance": "O=C(Cc1c(-c2ccccc2)n[nH]c1-c1ccccc1)NO", "target": "MMP2 (Homo sapiens, UniProt P08253)", "test": "enzyme activity, inhibitor", "conditions": "10 µM", "measurement": "remaining activity", "result": "104%"}
{"Substance": "Nc1nc2c(ncn2[C@H]2C[C@H](O)[C@@H](COP(=O)(O)OP(=O)(O)CP(=O)(O)O)O2)c(=O)[nH]1", "target": "POLB", "test": "nucleotide incorporation rate, substrate, single-turnover kinetics", "test system": "single-nucleotide gapped DNA", "conditions": "37 °C, wild type, misincorporation, added: dGTP opposite template A", "measurement": "kpol", "result": "0.003 ± 0.0002 s⁻¹"}
{"note": "Excerpt of the above:"}
{"Substance": "O=C(Cc1c(-c2ccccc2)n[nH]c1-c1ccccc1)NO", "target": "MMP2 (Homo sapiens, UniProt P08253)", "test": "enzyme activity, inhibitor", "conditions": "10 µM", "measurement": "remaining activity", "result": "104%"}
